Results gathered from unrelated publications.
Every numbered part comes from another study and shows a few of its results, in no order.

Study 1
Target: Interferon regulatory factor 5, full length, phosphomimetic (IRF5, Homo sapiens, UniProt Q13568-2, residues 1-514, S451D/S453D/S456D/S462D)
Method: protein-binding microarray
Molecule type: double-stranded DNA, one strand shown
Medium: in vitro
Concentration: 940 nM top
Setting: 60-bp whole probe
Together with: salmon DNA 0.4 mg/ml
Baseline: random background probes
Reading: higher = stronger binding
All sequences stand within: GCCTAGCAC … GTCTTGATTCGCTTGACGCTGCTG
`TTAGGTATCGGGTATTGGTTAGTGCTA` — result for “fitted relative affinity”: 5.96 z-score.
For `TTAGAACTGTGGTATCGATTAGTGCTA`, “fitted relative affinity” read 3.58 z-score.
Under “fitted relative affinity”, `GACGGTATCCTTATCCTGACGTGCTAG` is recorded as 0.258 z-score.
`TTCGATTTCAGTTCCGATTAGTGCTAG` — result for “fitted relative affinity”: 2.06 z-score.
`TTAGGTATCCTTTTCGTTTAGTGCTAG`: “fitted relative affinity” 1.17 z-score.
`CAGGGAATTCACCTGCTGACGTGCTAG` — result for “fitted relative affinity”: -0.693 z-score.
For `GACGGTATCCTACTGCTGAGGTGCTAG`, “fitted relative affinity” read -0.041 z-score.

Study 2
Target: Phosphate system positive regulatory protein PHO4, full length, GST-tagged (PHO4, Saccharomyces cerevisiae, UniProt P07270, residues 1-312)
Method: competition protein-binding microarray
Molecule type: double-stranded DNA, one strand shown
Medium: in vitro
Concentration: 2 µM
Setting: whole 60-bp probe, lowest competitor level
Together with: Cbf1 competitor, 0.05 µM
Reading: higher = stronger binding
Target sequence (chain): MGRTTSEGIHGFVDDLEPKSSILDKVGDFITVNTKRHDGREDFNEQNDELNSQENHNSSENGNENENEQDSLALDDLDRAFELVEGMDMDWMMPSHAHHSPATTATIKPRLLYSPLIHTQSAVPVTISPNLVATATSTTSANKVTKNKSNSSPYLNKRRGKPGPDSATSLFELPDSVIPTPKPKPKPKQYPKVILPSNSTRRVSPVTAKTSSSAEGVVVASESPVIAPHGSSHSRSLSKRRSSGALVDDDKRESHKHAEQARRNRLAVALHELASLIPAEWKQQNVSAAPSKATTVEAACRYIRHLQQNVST
`AGGGATACCGCTACCCACGTACCCCAAGACCAGCCCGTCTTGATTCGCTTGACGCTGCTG` gave a fluorescence intensity of 8260 a.u.
`ATCCTCCTTAGTGGGCATGTGCTCTAGGAATGCAGAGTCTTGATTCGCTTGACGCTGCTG` has a fluorescence intensity of 11700 a.u.
With `AAAGCGGTAATTTGTGCTGTGGGTGCAGATATCTATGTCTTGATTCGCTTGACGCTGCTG` the fluorescence intensity was 4350 a.u.
`ACTACACTAACCGCCCATGTGTTGGATGGTGTAACTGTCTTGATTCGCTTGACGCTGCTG` gave a fluorescence intensity of 11300 a.u.
With `GTCTTGTCTCATTTTCACGTGGGATTCCCCACTTCAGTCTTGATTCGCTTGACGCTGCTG` the fluorescence intensity was 12000 a.u.

Study 3
Target: Histone acetyltransferase KAT6A, winged helix 2, GST fusion (KAT6A, Homo sapiens, UniProt Q92794, residues 85-181)
Method: protein binding microarray
Molecule type: double-stranded DNA, one strand shown
Medium: in vitro
Concentration: not given
Setting: 8-mer, flanks averaged, mean of 2 arrays, mostly near background
Baseline: not given
Reading: higher = stronger binding
Construct (chain): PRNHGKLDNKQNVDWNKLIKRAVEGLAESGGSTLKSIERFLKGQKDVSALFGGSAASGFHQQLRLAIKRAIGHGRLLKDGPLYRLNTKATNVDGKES
With `GACGGGCA` the E-score was 0.123.
`ACCAGGGT` gave an E-score of -0.0692.
`ACCTTCCT` gave an E-score of -0.218.
With `AATGTAGG` the E-score was -0.12.
With `CGGTACGC` the E-score was -0.0212.
The E-score of `AACATCTC` is reported as -0.169.
`ATAATTAC` has an E-score of 0.033.

Other studies, line by line
`PhoQ, residues 284 288 289 292 302 303 TTSMTC` gave a fold induction of 14.5 (PhoP, residues 12 14 15 18 19 SQCLL (Escherichia coli, UniProt P23836); Sort-seq, refers to: YFP reporter; E. coli; PhoQ-PhoP variant library, together with: 10 µM Mg2+; baseline: high Mg2+ state, higher = stronger signaling).

A few entries again (study 1):
`CAGGGAATTCACCTGCTGACGTGCTAG` — result for “fitted relative affinity”: -0.693 z-score.
For `GACGGTATCCTACTGCTGAGGTGCTAG`, “fitted relative affinity” read -0.041 z-score.
Under “fitted relative affinity”, `GACGGTATCCTTATCCTGACGTGCTAG` is recorded as 0.258 z-score.
